Assay results from different studies.
Numbered parts are unrelated; each lists some results of a single study.
UniProt Q13164, sequence (whole entry, looked up): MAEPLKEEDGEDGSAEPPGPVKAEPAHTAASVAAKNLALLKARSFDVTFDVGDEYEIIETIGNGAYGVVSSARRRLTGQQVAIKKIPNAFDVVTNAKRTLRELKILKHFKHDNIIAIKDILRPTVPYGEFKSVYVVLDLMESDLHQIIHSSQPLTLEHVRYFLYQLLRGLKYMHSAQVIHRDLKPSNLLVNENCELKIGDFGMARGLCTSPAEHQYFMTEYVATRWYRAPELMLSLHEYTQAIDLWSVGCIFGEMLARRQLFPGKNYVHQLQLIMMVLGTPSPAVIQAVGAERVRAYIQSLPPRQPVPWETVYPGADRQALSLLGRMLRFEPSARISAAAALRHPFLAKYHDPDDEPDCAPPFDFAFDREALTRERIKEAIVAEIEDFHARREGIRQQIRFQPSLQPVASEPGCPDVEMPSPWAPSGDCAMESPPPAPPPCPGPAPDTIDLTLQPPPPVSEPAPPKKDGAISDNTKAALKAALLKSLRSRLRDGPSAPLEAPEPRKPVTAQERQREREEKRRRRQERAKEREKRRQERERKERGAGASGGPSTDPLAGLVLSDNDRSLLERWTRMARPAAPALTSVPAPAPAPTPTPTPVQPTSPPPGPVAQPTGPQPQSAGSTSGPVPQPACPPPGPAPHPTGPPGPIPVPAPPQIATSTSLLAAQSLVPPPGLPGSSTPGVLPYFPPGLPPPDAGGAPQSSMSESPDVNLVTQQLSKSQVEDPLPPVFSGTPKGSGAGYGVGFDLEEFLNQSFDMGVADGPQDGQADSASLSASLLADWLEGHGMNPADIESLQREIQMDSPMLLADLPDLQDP
UniProt Q14289, sequence (whole entry, looked up): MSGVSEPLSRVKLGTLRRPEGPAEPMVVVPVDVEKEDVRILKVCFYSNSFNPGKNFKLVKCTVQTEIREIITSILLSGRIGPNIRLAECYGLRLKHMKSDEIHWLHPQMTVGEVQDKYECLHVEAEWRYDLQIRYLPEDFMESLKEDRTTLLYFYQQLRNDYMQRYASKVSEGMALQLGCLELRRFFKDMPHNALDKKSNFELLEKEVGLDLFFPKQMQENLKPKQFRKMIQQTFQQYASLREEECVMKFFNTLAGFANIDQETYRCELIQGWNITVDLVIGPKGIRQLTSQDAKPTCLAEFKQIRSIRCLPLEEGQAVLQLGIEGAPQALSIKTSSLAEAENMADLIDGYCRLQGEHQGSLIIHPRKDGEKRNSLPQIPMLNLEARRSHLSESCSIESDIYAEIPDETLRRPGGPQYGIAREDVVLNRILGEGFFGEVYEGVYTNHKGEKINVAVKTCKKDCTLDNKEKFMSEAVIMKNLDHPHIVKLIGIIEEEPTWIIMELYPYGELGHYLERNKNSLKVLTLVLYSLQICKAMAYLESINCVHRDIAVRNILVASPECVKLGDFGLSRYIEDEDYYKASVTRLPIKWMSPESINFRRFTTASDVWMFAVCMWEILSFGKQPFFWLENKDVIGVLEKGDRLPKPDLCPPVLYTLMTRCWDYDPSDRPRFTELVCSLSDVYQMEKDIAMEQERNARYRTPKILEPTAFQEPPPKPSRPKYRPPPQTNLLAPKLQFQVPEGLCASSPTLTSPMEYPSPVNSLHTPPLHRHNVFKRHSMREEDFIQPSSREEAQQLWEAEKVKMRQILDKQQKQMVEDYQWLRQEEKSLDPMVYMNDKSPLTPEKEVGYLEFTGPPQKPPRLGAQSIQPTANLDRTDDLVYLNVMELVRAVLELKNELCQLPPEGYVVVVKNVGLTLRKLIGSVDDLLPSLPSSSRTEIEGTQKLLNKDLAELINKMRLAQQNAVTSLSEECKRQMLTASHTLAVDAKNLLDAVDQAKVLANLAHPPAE
UniProt Q13882, sequence (whole entry, looked up): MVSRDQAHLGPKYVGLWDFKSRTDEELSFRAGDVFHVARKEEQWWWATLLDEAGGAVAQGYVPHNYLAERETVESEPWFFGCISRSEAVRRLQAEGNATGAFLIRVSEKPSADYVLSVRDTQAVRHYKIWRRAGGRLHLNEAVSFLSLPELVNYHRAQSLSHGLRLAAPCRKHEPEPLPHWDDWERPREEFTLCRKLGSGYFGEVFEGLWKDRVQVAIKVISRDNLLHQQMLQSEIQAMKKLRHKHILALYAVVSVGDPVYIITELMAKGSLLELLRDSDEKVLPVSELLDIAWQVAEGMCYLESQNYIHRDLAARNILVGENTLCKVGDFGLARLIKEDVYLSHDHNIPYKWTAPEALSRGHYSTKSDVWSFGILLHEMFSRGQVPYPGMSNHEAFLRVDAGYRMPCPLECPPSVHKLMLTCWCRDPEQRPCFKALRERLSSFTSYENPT
UniProt Q9NQU5, sequence (whole entry, looked up): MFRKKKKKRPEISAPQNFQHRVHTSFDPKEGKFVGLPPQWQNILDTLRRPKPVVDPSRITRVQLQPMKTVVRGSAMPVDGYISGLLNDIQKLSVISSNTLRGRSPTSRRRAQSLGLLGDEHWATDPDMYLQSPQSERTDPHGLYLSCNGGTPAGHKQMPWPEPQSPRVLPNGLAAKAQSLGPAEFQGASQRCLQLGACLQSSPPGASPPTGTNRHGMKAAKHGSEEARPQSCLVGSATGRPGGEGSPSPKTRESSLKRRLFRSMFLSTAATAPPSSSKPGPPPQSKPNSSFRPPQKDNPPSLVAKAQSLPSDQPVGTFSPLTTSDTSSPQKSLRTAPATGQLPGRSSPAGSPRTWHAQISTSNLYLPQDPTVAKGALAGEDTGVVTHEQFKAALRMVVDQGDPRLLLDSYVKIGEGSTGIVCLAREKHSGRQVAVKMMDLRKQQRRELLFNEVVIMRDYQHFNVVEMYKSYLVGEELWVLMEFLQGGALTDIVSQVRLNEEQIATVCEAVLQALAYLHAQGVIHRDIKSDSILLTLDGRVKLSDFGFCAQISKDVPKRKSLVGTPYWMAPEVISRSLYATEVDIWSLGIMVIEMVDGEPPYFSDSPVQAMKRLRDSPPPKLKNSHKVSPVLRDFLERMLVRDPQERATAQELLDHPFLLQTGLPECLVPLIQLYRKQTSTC
UniProt P36896, sequence (whole entry, looked up): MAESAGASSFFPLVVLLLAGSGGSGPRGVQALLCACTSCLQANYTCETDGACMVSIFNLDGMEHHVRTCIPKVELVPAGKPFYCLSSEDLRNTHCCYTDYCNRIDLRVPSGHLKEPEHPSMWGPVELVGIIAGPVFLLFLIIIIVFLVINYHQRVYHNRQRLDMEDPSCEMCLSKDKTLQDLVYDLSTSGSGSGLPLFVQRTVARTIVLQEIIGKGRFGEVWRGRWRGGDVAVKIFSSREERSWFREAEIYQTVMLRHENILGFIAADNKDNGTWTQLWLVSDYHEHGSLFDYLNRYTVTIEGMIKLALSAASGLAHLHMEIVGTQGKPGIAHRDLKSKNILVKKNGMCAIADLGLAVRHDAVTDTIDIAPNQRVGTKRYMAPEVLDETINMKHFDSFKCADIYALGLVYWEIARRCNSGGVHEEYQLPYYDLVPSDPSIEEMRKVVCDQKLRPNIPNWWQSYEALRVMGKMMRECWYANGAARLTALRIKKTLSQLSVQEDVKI
UniProt P11802, sequence (whole entry, looked up): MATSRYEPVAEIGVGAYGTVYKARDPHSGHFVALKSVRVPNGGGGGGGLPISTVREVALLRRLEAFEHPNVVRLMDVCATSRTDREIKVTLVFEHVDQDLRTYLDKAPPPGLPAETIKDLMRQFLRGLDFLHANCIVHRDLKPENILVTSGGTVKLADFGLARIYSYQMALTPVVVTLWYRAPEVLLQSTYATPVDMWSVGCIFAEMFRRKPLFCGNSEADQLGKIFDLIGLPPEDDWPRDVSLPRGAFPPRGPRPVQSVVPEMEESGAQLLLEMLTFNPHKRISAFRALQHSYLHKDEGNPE
UniProt Q8NI60, sequence (whole entry, looked up): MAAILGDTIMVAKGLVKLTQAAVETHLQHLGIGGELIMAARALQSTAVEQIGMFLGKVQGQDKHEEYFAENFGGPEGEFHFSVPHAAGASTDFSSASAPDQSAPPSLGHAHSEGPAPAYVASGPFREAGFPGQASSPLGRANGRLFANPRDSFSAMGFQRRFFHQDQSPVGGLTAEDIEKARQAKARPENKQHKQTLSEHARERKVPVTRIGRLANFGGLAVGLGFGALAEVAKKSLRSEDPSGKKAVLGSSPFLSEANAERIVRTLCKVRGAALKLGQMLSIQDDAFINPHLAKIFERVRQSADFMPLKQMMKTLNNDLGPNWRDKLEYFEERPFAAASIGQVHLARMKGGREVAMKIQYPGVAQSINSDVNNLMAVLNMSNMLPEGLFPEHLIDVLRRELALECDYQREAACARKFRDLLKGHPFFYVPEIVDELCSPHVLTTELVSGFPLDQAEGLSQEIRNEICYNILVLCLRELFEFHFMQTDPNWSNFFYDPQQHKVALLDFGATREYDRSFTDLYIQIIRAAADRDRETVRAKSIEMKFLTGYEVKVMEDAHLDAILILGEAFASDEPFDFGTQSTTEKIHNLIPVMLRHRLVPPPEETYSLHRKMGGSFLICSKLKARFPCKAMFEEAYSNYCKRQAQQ

Sample 1
Structure (SMILES): CC(C)n1cnc(-c2ccc(F)cc2)c1-c1ncc(C(=O)Nc2ccc(N3CCN(C)CC3)cc2)[nH]1
Technique: Phase 2a trial
Host: idiopathic pulmonary fibrosis patients
For refers to: blood bilirubin increased; 30 mg once daily, grade 5 maximum intensity: “patients with adverse events” read 0%.
For refers to: neutrophil count increased; 30 mg once daily, grade 4 maximum intensity: “patients with adverse events” read 0%.
It gave 0% for “patients with adverse events” (refers to: bile acids increased; 30 mg once daily, grade 1 maximum intensity).
The “patients with adverse events” was 0% (refers to: bile acids increased; 60 mg once daily, grade 1 maximum intensity).
It gave 0% for “patients with adverse events” (refers to: blood bilirubin increased; 60 mg once daily, grade 2 maximum intensity).
refers to: blood bilirubin increased; 30 mg once daily, grade 2 maximum intensity — “patients with adverse events”: 0%.
The “patients with adverse events” was 0% (refers to: oral herpes; oral, dose not given, grade 2 maximum intensity, all arms).
refers to: vision blurred; 60 mg once daily, grade 1 maximum intensity — “patients with adverse events”: 0%.
For refers to: blood bilirubin increased; 60 mg once daily, grade 3 maximum intensity: “patients with adverse events” read 0%.
refers to: oral herpes; oral, 30 mg once daily, grade 5 maximum intensity — “patients with adverse events”: 0%.
refers to: respiratory tract infection; 30 mg once daily, grade 3 maximum intensity — “patients with adverse events”: 0%.
refers to: gamma-glutamyltransferase increased; dose not given, grade 5 maximum intensity, all arms — “patients with adverse events”: 0%.
refers to: neutrophil count increased; dose not given, grade 4 maximum intensity, all arms — “patients with adverse events”: 0%.
The “patients with adverse events” was 0% (refers to: neutrophil count increased; dose not given, grade 2 maximum intensity, all arms).

Sample 2
Structure (SMILES): C=CC(=O)N1CCC([C@@H]2CCNc3c(C(N)=O)c(-c4ccc(Oc5ccccc5)cc4)nn32)CC1
Mode: inhibitor
Tested at: 1 µM
For PTK2B (Homo sapiens, UniProt Q14289); enzyme activity: inhibition read 13%.
It gave 14% for inhibition (PAK6 (Homo sapiens, UniProt Q9NQU5); enzyme activity).
PTK6 (Homo sapiens, UniProt Q13882); enzyme activity — inhibition: 95%.
The inhibition was 2% (SBK1 (Homo sapiens, UniProt Q52WX2); enzyme activity).
COQ8A (Homo sapiens, UniProt Q8NI60); enzyme activity — inhibition: 12%.
MAPK7 (Homo sapiens, UniProt Q13164); enzyme activity — inhibition: 7%.
It gave 46% for inhibition (WNK2 (Homo sapiens, UniProt Q9Y3S1); enzyme activity).
It gave 0% for inhibition (CDK4 (Homo sapiens, UniProt P11802); enzyme activity).
The inhibition was 1% (Non-receptor tyrosine-protein kinase TYK2, JH1 domain (TYK2, Homo sapiens, UniProt P29597)).
For MAPK11 (Homo sapiens, UniProt Q15759); enzyme activity: inhibition read 8%.
The inhibition was 5% (TAOK1 (Homo sapiens, UniProt Q7L7X3); enzyme activity).
It gave 0% for inhibition (MAK (Homo sapiens, UniProt P20794); enzyme activity).

Sample 3
Target: Serine/threonine-protein kinase OSR1 (OXSR1, Homo sapiens, UniProt O95747)
UniProt O95747, sequence (whole entry, looked up): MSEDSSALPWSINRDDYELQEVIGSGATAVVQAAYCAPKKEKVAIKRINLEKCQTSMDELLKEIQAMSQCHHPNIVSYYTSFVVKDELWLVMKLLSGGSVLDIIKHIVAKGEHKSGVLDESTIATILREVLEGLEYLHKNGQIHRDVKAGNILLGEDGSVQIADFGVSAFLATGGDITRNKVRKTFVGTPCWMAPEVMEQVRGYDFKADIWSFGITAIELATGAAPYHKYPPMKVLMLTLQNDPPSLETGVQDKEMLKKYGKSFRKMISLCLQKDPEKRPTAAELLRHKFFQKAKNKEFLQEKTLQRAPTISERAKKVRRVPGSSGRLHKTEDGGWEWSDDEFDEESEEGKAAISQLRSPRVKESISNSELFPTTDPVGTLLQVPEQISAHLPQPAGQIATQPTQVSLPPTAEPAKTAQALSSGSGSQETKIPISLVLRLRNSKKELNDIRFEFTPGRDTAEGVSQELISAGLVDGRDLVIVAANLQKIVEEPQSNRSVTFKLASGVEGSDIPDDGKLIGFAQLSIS
Observed: enzyme activity
Mode: inhibitor
Tested at: 0.5 µM
Relative to: control
With `COc1ccc(OC)c2c(=S)c3ccccc3[nH]c12` the remaining activity was 90.6%.
`CC(C)[C@H](CO)Nc1nc(Nc2cc(N)cc(Cl)c2)c2ncn(C(C)C)c2n1` gave a remaining activity of 100%.
The remaining activity of `Nc1ncnc2n[nH]c(Nc3ccc(F)cc3)c12` is reported as 110%.
`O=C1NC(=O)C(c2cn(CCCn3ccnc3)c3ccccc23)=C1Nc1ccccc1` has a remaining activity of 97.2%.
`CCOC(=O)c1c(C)[nH]c(/C=C2\C(=O)Nc3ccccc32)c1C` has a remaining activity of 87.9%.
For `OCC(O)CCON=C1C(c2c(O)[nH]c3ccccc23)=Nc2ccccc21` (stereo not shown), the remaining activity was 98.6%.
With `O=C(Nc1cccc(Nc2cc(Nc3cccc(C(F)(F)F)c3)ncn2)c1)C1CC1` the remaining activity was 110%.
`COc1cc2ncnc(Nc3ccc(F)c(Cl)c3)c2cc1OCCCN1CCOCC1` has a remaining activity of 101%.
`NCCNc1ncc(C(N)=O)c(Nc2cccc(C(F)(F)F)c2)n1` gave a remaining activity of 104%.
The remaining activity of `Nc1[nH]nc2nc3ccccc3nc12` is reported as 92.7%.
The remaining activity of `CO[C@H]1C[C@@H]2CC[C@@H](C)[C@@](O)(O2)C(=O)C(=O)N2CCCC[C@H]2C(=O)O[C@H]([C@H](C)C[C@@H]2CC[C@@H](O)[C@H](OC)C2)CC(=O)[C@H](C)/C=C(\C)[C@@H](O)[C@@H](OC)C(=O)[C@H](C)C[C@H](C)/C=C/C=C/C=C/1C` is reported as 96.6%.
`COc1cc2ncnc(Nc3ccc(Oc4ccccc4)cc3)c2cc1OC` has a remaining activity of 97.5%.
`C#Cc1cccc(Nc2ncnc3cc(OCCOC)c(OCCOC)cc23)c1` has a remaining activity of 102%.
`COc1ccc(CNC(=O)Nc2ncc([N+](=O)[O-])s2)cc1` has a remaining activity of 95.9%.
For `COc1cc2nccc(Oc3ccc(NC(=S)NC(=O)c4ccccc4C)cc3)c2cc1OC`, the remaining activity was 106%.

Sample 4
SMILES: CNCc1ccccc1-c1csc([C@@H](C)Nc2nc(C)nc3cc(OC)c(OC)cc23)c1
Observed: cell-free assay
Technique: competition with immobilised ligand
Tested at: 1 µM
For ACVR1B (Homo sapiens, UniProt P36896): remaining binding read 91%.
The remaining binding was 77% (Aurora kinase B (AURKB, Homo sapiens, UniProt Q96GD4)).
The remaining binding was 91% (ROCK1 (Homo sapiens, UniProt Q13464)).
The remaining binding was 100% (Macrophage colony-stimulating factor 1 receptor, autoinhibited (CSF1R, Homo sapiens, UniProt P07333)).
It gave 83% for remaining binding (HIPK3 (Homo sapiens, UniProt Q9H422)).
The remaining binding was 60% (STK38 (Homo sapiens, UniProt Q15208)).
The remaining binding was 100% (LATS1 (Homo sapiens, UniProt O95835)).
The remaining binding was 97% (MAPK7 (Homo sapiens, UniProt Q13164)).

Excerpt of the above (sample 1):
refers to: vision blurred; 60 mg once daily, grade 1 maximum intensity — “patients with adverse events”: 0%.
For refers to: blood bilirubin increased; 60 mg once daily, grade 3 maximum intensity: “patients with adverse events” read 0%.
refers to: oral herpes; oral, 30 mg once daily, grade 5 maximum intensity — “patients with adverse events”: 0%.
